Results from different studies.
Each line is one published result; not all experiments were run side by side. ± marks the error that the study gave.
lasR: Transcriptional activator protein LasR (lasR, Pseudomonas aeruginosa, UniProt P25084)
pafA T79S: Alkaline phosphatase PafA (pafA, Elizabethkingia meningoseptica, UniProt Q9KJX5, T79S)
Chain of UniProt P26718 (whole entry, looked up): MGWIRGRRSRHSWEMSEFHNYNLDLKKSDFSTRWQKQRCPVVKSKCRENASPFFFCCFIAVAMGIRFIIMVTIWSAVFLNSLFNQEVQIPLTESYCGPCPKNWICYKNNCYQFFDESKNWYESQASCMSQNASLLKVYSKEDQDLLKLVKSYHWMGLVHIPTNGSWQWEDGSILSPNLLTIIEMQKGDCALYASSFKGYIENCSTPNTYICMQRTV
Chain of UniProt P61073 (whole entry, unmodified, looked up): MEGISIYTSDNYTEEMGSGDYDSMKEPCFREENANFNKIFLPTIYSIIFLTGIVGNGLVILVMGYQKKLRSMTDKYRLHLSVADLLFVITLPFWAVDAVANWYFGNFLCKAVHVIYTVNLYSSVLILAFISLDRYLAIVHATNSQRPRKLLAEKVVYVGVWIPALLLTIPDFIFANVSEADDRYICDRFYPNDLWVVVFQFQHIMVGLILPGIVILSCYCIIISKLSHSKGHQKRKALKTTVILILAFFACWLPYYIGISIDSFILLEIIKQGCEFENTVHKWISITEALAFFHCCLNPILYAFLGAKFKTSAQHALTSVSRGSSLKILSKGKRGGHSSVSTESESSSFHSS
Chain of UniProt O43525 (whole entry, looked up): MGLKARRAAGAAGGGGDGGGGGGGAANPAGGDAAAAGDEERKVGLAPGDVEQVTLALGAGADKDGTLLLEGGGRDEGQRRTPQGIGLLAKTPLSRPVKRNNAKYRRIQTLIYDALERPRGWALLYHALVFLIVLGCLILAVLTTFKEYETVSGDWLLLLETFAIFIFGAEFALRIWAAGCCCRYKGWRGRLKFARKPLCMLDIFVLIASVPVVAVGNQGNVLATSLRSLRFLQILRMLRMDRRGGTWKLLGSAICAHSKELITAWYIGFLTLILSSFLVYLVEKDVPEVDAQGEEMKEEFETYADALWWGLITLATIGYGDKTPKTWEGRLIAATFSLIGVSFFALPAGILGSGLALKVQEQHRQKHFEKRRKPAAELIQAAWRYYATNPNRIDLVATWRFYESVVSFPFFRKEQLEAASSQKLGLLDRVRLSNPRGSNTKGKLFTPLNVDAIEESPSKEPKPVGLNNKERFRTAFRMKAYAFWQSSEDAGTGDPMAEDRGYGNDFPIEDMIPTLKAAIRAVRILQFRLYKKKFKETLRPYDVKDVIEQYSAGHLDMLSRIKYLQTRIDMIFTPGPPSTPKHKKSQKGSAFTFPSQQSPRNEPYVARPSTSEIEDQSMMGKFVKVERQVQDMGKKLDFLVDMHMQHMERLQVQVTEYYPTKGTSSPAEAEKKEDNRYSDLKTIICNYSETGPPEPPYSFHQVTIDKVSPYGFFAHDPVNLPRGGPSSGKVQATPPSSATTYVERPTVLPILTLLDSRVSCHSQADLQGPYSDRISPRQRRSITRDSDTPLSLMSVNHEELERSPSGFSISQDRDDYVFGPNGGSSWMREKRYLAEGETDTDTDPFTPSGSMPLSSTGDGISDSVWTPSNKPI
Chain of UniProt Q6TCG2 (whole entry, looked up): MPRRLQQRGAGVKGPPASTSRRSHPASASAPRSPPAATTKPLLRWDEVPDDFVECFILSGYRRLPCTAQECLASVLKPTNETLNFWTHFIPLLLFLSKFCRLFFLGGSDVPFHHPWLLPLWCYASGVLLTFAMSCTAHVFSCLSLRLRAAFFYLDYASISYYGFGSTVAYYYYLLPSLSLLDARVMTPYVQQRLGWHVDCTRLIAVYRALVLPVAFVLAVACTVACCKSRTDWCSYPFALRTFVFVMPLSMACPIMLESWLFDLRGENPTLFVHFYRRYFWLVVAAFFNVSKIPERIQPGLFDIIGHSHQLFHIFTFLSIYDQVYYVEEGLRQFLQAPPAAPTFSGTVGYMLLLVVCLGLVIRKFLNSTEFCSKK
Chain of UniProt P00691 (whole entry, looked up): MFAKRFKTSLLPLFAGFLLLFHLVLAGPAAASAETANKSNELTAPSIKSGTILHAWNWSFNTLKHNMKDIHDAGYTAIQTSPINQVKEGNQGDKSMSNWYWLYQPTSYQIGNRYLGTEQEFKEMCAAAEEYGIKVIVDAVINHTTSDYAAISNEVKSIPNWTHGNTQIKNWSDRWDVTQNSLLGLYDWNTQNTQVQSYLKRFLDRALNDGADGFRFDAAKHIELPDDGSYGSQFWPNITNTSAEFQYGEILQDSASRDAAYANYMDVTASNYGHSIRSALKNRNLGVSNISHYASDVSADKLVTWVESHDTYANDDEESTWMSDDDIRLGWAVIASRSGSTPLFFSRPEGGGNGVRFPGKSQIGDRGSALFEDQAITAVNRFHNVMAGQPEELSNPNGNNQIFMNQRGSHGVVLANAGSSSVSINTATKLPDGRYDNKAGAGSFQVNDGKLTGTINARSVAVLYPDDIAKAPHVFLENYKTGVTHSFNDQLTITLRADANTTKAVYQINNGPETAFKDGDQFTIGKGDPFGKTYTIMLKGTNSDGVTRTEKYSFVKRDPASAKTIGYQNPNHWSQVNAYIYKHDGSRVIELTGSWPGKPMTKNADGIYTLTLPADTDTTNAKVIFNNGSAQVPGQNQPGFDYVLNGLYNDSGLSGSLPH
Chain of UniProt P11309 (whole entry, looked up): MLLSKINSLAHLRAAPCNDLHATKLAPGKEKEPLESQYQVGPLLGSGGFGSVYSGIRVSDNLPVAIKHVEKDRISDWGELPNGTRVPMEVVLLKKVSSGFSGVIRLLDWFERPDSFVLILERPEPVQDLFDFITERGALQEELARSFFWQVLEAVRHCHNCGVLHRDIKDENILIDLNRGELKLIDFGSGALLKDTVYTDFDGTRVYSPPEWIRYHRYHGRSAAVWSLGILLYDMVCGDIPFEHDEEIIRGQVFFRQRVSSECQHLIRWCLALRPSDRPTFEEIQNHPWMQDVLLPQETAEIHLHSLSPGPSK
Chain of UniProt P23443 (whole entry, looked up): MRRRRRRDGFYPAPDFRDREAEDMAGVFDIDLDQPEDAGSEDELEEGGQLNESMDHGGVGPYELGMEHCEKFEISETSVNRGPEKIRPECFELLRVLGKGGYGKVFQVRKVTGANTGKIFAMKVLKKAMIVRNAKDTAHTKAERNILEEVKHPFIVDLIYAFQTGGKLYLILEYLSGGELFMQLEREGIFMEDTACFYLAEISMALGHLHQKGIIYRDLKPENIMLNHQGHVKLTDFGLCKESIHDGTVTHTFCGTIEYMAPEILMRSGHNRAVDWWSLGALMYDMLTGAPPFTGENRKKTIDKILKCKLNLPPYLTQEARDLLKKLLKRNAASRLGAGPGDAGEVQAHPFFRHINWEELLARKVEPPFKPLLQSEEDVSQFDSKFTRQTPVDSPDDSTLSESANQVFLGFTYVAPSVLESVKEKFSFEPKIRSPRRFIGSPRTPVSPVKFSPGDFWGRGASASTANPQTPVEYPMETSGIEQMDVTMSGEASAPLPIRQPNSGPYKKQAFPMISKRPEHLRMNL
Chain of UniProt Q96GD4 (whole entry, looked up): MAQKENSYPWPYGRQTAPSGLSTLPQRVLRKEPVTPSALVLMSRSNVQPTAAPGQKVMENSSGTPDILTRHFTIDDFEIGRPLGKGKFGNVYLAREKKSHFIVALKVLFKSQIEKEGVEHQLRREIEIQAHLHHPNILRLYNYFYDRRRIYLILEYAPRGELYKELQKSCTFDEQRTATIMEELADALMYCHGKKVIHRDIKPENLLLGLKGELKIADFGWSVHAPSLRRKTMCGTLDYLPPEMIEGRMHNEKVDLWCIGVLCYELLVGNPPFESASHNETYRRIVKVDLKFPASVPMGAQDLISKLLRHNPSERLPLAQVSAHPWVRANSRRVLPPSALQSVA
Chain of UniProt Q9BV86 (whole entry, looked up): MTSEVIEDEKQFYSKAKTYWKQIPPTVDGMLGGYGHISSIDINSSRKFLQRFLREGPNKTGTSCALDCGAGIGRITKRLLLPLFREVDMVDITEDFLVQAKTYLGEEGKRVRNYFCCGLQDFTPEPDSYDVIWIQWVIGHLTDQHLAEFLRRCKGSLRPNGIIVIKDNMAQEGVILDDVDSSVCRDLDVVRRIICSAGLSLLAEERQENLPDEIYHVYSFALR
Chain of UniProt O15294 (whole entry, looked up): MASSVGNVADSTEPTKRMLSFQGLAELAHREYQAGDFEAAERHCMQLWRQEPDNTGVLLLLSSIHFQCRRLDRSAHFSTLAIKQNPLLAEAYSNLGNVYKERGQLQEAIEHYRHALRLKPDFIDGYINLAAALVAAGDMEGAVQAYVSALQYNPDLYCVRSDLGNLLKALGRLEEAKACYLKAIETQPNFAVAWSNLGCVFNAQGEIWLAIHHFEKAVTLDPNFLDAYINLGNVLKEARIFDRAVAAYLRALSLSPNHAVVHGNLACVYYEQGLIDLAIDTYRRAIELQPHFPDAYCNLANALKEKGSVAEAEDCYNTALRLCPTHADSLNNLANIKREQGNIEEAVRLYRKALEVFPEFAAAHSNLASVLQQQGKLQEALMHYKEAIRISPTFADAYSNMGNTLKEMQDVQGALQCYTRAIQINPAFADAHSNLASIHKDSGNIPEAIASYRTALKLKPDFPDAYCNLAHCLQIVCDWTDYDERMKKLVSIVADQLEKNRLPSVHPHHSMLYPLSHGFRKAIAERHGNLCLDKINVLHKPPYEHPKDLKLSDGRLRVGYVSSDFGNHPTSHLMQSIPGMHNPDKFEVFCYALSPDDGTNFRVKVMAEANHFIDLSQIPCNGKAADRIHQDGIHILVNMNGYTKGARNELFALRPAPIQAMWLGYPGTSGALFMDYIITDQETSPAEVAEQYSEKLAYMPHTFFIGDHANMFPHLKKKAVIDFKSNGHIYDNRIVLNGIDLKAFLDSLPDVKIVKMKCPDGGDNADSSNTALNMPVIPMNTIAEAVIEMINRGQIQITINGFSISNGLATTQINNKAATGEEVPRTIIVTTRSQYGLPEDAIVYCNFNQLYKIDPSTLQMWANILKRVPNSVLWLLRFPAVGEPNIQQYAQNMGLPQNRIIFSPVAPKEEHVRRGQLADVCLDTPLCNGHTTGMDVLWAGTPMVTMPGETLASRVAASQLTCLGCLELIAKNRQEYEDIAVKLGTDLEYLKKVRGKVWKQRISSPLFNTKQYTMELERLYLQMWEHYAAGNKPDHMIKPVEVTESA

SMILES	target	assay	test system	conditions	scale	quantity	result
CCCCC/C=C\C/C=C\C/C=C\C/C=C\CCCC(=O)NC(CO)C(=O)O (stereo in doubt)	Voltage-gated potassium channel, KQT; KCNQ2(Kv7.2)/KCNQ3(Kv7.3) (KCNQ3/KCNQ2, Homo sapiens, UniProt O43525+O43526)	two-electrode voltage clamp	Xenopus oocytes	10 µM	–	onset time	≤ 2 min
C[C@@]1(O)CC[C@H]2[C@H](CC[C@@H]3[C@@H]2CC[C@]2(C)[C@@H](C(=O)Cn4cccn4)CC[C@@H]32)C1	Membrane progesterone receptor epsilon (Paqr9, Mus musculus, UniProt Q6TCG2)	pPKA/PKA immunoblot	MDA-MB-231 expressing Paqr9-GFP	100 nM, 20 min	reference: control	PKA activation	93.7 ± 10.6%
CN(C)C(=O)[C@@H](NC(=O)c1cnccc1-c1ccc(C(F)(F)F)cc1)c1cc(C(F)(F)F)cc(C(F)(F)F)c1	NKG2-D type II integral membrane protein, with ULBP6 (KLRK1, Homo sapiens, UniProt P26718)	ligand binding, inhibitor, TR-FRET	HEK293 expressing NKG2D and DAP10	together with: ULBP6-AF647	reference: positive control	maximum inhibition	103%
O=C1NC(=O)c2c1c1cc(F)c[n+]3c1c1c2c2cc(O)ccc2[n]1[Ru-4]312([N]=C=S)[S+]3CC[S+]1CC[S+]2CC3 (stereo not drawn)	RPS6KB1 (Homo sapiens, UniProt P23443)	kinase activity, inhibitor	–	100 nM, together with: 10 µM ATP	–	remaining activity	7%
O=C(Cn1cc(C2CCCC2)nn1)N[C@H]1CCOC1=O	lasR	reporter gene, agonist	Escherichia coli, DH5α pJN105L/pSC11	100 µM	reference: OdDHL at same concentration	activation	0%
CC(C)P(=[Se])(NP(=[Se])(C(C)C)C(C)C)C(C)C	Alpha-amylase (Bacillus subtilis, UniProt P00691)	fluorescence quenching	–	concentration not given, 310 K	–	number of binding sites	1.09 ± 0.08
CC[C@H](C)[C@H](NC(=O)[C@H](CO)NC(=O)[C@H](Cc1ccc(O)cc1)NC(=O)[C@H](CCCCN)NC(=O)[C@@H]1CCCN1C(=O)[C@H](CCSC)NC(=O)[C@@H](N)Cc1ccccc1)C(=O)O	OGT (Homo sapiens, UniProt O15294)	enzyme activity, fluorescence activity	–	–	–	highest concentration without inhibition	> 100 µM
Nc1c2c([n+](CCCCCCCCCC[n+]3c4c(c(N)c5ccccc53)CCC4)c3ccccc13)CCC2	2F5 Fab	SPR	–	concentration not given	–	binding	no binding
O=c1oc2cc(O)c(O)cc2c2oc3cc4c(cc3c12)OCO4	Genome polyprotein, NS5B polymerase (Hepatitis C virus genotype 1b, UniProt P26663)	RNA polymerase activity, uncompetitive inhibitor	–	together with: poly rA/U12 varied, UTP 25 µM	–	Ki	342 µM
CC[C@H](C)[C@H](NC(=O)[C@H](Cc1c[nH]cn1)NC(=O)[C@H](CCCCNC(=O)[C@@H](NC(=O)[C@H](CCCCN)NC(=O)[C@H](Cc1ccccc1)NC(=O)[C@H](CCCCNC(=O)[C@H](CC(C)C)NC(=O)[C@@H]1CCCN1C(=O)[C@H](CCCCN)NC(=O)c1ccc(O[C@@H]2O[C@H](CO)[C@H](O)[C@H](O)[C@H]2O)cc1)NC(=O)[C@H](CC(C)C)NC(=O)[C@@H]1CCCN1C(=O)[C@H](CCCCN)NC(=O)c1ccc(O[C@@H]2O[C@H](CO)[C@H](O)[C@H](O)[C@H]2O)cc1)[C@@H](C)CC)NC(=O)[C@@H](NC(=O)[C@H](CCCCN)NC(=O)[C@H](Cc1ccccc1)NC(=O)[C@H](CCCCNC(=O)[C@H](CC(C)C)NC(=O)[C@@H]1CCCN1C(=O)[C@H](CCCCN)NC(=O)c1ccc(O[C@@H]2O[C@H](CO)[C@H](O)[C@H](O)[C@H]2O)cc1)NC(=O)[C@H](CC(C)C)NC(=O)[C@@H]1CCCN1C(=O)[C@H](CCCCN)NC(=O)c1ccc(O[C@@H]2O[C@H](CO)[C@H](O)[C@H](O)[C@H]2O)cc1)[C@@H](C)CC)C(N)=O	lecA (Pseudomonas aeruginosa, UniProt Q05097)	ITC	–	concentration not given, pH 7.5, 25 °C	–	binding stoichiometry	4.2 ± 0.6
O=[N+]([O-])c1ccc(OP(=O)(O)O)cc1	pafA T79S	–	Chryseobacterium meningosepticum	pH 8.0	reference: wild type over mutant kcat/KM	relative catalytic efficiency	2.5
NC(Cc1ccccc1)C(O)CNCc1cccc(C(F)(F)F)c1 (stereo not drawn)	Amyloid-beta precursor protein, amyloid-beta 1-40 oligomers (APP, Homo sapiens, UniProt P05067)	binding, STD NMR	–	highest STD	–	STD NMR signal	0.89%
CC[C@H](C)[C@@H]1NC(=O)[C@H](Cc2ccc(O)cc2)NC(=O)[C@@H](N)CSSC[C@@H](C(=O)N2CCC[C@H]2C(=O)N2CCC[C@H]2C(=O)NCC(N)=O)NC(=O)[C@H](CC(N)=O)NC(=O)[C@H](CCC(N)=O)NC1=O	Oxytocin receptor (OXTR, Homo sapiens, UniProt P30559)	membrane hyperpolarization, agonist	CHO	–	reference: compound over vasopressin	potency ratio	~4
O=C(N[C@H]1CCOC1=O)c1ccc(-n2cc(C3CC3)nn2)cc1	lasR	reporter gene, agonist	Escherichia coli, DH5α pJN105L/pSC11	100 µM	reference: OdDHL at same concentration	activation	0%
CC(C)C[C@H](NC=O)C(=O)N[C@@H](C)C(=O)N[C@@H](C)C(=O)N[C@@H](CC(=O)O)C(=O)N[C@@H](CC(C)C)C(=O)N[C@@H](CC(C)C)C(=O)N[C@@H](C)C(=O)N[C@@H](C)C(=O)N[C@@H](CC(C)C)C(=O)NCC(=O)N[C@@H](CC(=O)O)C(=O)N[C@@H](CC(C)C)C(=O)N[C@@H](CC(C)C)C(=O)N[C@@H](CCCCN)C(=O)N[C@@H](Cc1c[nH]c2ccccc12)C(=O)N[C@@H](CC(C)C)C(=O)N[C@@H](CC(C)C)C(=O)N[C@@H](CC(=O)O)C(=O)N[C@@H](C)C(=O)N[C@@H](CC(C)C)C(=O)N[C@@H](C)C(=O)N[C@@H](CCCCN)C(=O)N[C@@H](CC(C)C)C(=O)N[C@@H](C)C(=O)N[C@@H](CCCCN)C(=O)N[C@@H](CCCCN)C(=O)O (racemic)	POPC membrane	membrane binding, stopped-flow FRET	–	mole fraction units, room temperature	–	binding free energy	-5.7 kcal/mol
CC(C)C[C@@H](N)C(=O)NCC(=O)N[C@H](C)C(=O)N[C@H](CO)C(=O)N[C@H](Cc1c[nH]c2ccccc12)C(=O)N[C@H](Cc1c[nH]cn1)C(=O)N[C@H](CCCNC(=N)N)C(=O)N1CCC[C@@H]1C(=O)N[C@H](CC(=O)O)C(=O)N[C@H](CCCCN)C(=O)N[C@H](CSSC[C@@H](NC(=O)[C@@H](CCCCN)NC(=O)[C@@H](CC(=O)O)NC(=O)[C@H]1CCCN1C(=O)[C@@H](CCCNC(=N)N)NC(=O)[C@@H](Cc1c[nH]cn1)NC(=O)[C@@H](Cc1c[nH]c2ccccc12)NC(=O)[C@@H](CO)NC(=O)[C@@H](C)NC(=O)CNC(=O)[C@H](N)CC(C)C)C(=O)N[C@H](C)C(=O)N[C@H](CC(C)C)C(=O)NCC(=O)N[C@H](Cc1ccc(O)cc1)C(=O)N[C@H](CCC(N)=O)C(=O)N[C@H](CCCCN)C(=O)N[C@H](CCCNC(=N)N)C(=O)N1CCC[C@@H]1C(=O)N[C@H](CC(C)C)C(=O)N1CCC[C@@H]1C(N)=O)C(=O)N[C@H](C)C(=O)N[C@H](CC(C)C)C(=O)NCC(=O)N[C@H](Cc1ccc(O)cc1)C(=O)N[C@H](CCC(N)=O)C(=O)N[C@H](CCCCN)C(=O)N[C@H](CCCNC(=N)N)C(=O)N1CCC[C@@H]1C(=O)N[C@H](CC(C)C)C(=O)N1CCC[C@@H]1C(N)=O	CXCR4 (Homo sapiens, UniProt P61073, F87A)	–	293 cells	300 nM, together with: 12G5 antibody 5 µg/mL	reference: wild type	binding affinity reduction	40%
Cc1cc(Nc2nc(C[C@@]3(C(=O)O)CCN(Cc4cccc(Cl)c4F)[C@H](C)C3)cc(C)c2F)[nH]n1	Aurora kinase B (AURKB, Homo sapiens, UniProt Q96GD4)	Western blot	NCI-H446	up to 2 µM	–	phosphorylation inhibition	no inhibition
CC(C)C[C@@H](N)C(=O)NCC(=O)N[C@H](C)C(=O)N[C@H](CO)C(=O)N[C@H](Cc1c[nH]c2ccccc12)C(=O)N[C@H](Cc1c[nH]cn1)C(=O)N[C@H](CCCNC(=N)N)C(=O)N1CCC[C@@H]1C(=O)N[C@H](CC(=O)O)C(=O)N[C@H](CCCCN)C(=O)N[C@H](CCCCN)C(=O)N[C@H](CCCNC(=N)N)C(=O)NCCCCCC(=O)N[C@@H](CCCCN)C(=O)N[C@@H](CCCNC(=N)N)C(=O)N[C@@H](CCCCN)C(=O)N[C@H](C(=O)N[C@@H](CC(N)=O)C(=O)N[C@@H](CC(N)=O)C(=O)N[C@@H](CC(N)=O)C(=O)N1CCC[C@H]1C(=O)N[C@@H](CCCNC(=N)N)C(=O)N[C@H](C(=O)N[C@@H](CS)C(N)=O)[C@@H](C)O)[C@@H](C)O	CXCR4 (Homo sapiens, UniProt P61073, Y116A)	12G5 antibody binding	–	200 nM, mutant Y116A	reference: wild type	binding affinity change	decreased
CN1C(=O)[C@H](Cc2ccccc2)N(C)C(=O)[C@@H]2[C@H]1CCN2Cc1cc(Cl)cc(Cl)c1	NKG2-D type II integral membrane protein, with MICA (KLRK1, Homo sapiens, UniProt P26718)	cellular TR-FRET binding	–	–	–	ligand efficiency	0.23
CC(C)C[C@@H]1NC(=O)[C@H](Cc2ccc(O)cc2)NC(=O)[C@H](CC(N)=O)NC(=O)[C@H](CO)NC(=O)[C@@H](NC(=O)[C@@H]2CCCN2C(=O)[C@H](CC(N)=O)NC(=O)[C@H](Cc2ccc(O)cc2)NC(=O)[C@@H](N)CCCCN)CSC1=O	Accessory gene regulator protein C (Staphylococcus epidermidis, UniProt Q5HMY3)	agr signalling	–	100 nM	–	activity	inhibited
CCN(Cc1ccccc1)C(=O)CCc1nc(CN2CCN(C(=O)Cc3ccc(OC)c(OC)c3)CC2)no1	Scn10a (Rattus norvegicus, UniProt Q62968)	sodium current, inhibitor, whole-cell patch clamp	rat DRG neurons	300 nM, holding at -10 mV	–	current density	-14.1 ± 4.21 pA/pF
N=C(N)NCCC[C@H](NC(=O)[C@H](CCCNC(=N)N)NC(=O)[C@H](CCCNC(=N)N)NC(=O)[C@@H]1CCCN1C(=O)CNCCCN(CC[C@H](N)C(=O)O)C[C@H]1O[C@@H](n2cnc3c(N)ncnc32)[C@H](O)[C@@H]1O)C(=O)N[C@@H](CO)C(=O)O	N-terminal Xaa-Pro-Lys N-methyltransferase 1 (Homo sapiens, UniProt Q9BV86)	enzyme activity, inhibitor, MALDI-MS	–	5 µM, 20 min, together with: RCC1-10 peptide	–	dimethylation	inhibited
CC(=O)NC(Cc1ccc(Br)c(Cl)c1)C(=O)N[C@@H](C)C(=O)N1CCC[C@H]1C(=O)N1CCC[C@H]1C(=O)N[C@@H](CCC(=O)O)C(=O)N[C@@H](Cc1c[nH]cn1)C(=O)N[C@@H](CO)C(=O)N[C@H](C(=O)N[C@@H](C)C(N)=O)[C@@H](C)OP(=O)(O)O (stereo partly drawn)	PIM1 (Homo sapiens, UniProt P11309)	enzyme activity, inhibitor	–	10 µM	–	inhibition	0.37%
COP(=O)(O)O	pafA T79S	–	Chryseobacterium meningosepticum	pH 8.0	reference: wild type over mutant kcat/KM	relative catalytic efficiency	22

Some of these lines once more:
SMILES	target	assay	test system	conditions	scale	quantity	result
CCN(Cc1ccccc1)C(=O)CCc1nc(CN2CCN(C(=O)Cc3ccc(OC)c(OC)c3)CC2)no1	Scn10a (Rattus norvegicus, UniProt Q62968)	sodium current, inhibitor, whole-cell patch clamp	rat DRG neurons	300 nM, holding at -10 mV	–	current density	-14.1 ± 4.21 pA/pF
CC(C)C[C@@H](N)C(=O)NCC(=O)N[C@H](C)C(=O)N[C@H](CO)C(=O)N[C@H](Cc1c[nH]c2ccccc12)C(=O)N[C@H](Cc1c[nH]cn1)C(=O)N[C@H](CCCNC(=N)N)C(=O)N1CCC[C@@H]1C(=O)N[C@H](CC(=O)O)C(=O)N[C@H](CCCCN)C(=O)N[C@H](CCCCN)C(=O)N[C@H](CCCNC(=N)N)C(=O)NCCCCCC(=O)N[C@@H](CCCCN)C(=O)N[C@@H](CCCNC(=N)N)C(=O)N[C@@H](CCCCN)C(=O)N[C@H](C(=O)N[C@@H](CC(N)=O)C(=O)N[C@@H](CC(N)=O)C(=O)N[C@@H](CC(N)=O)C(=O)N1CCC[C@H]1C(=O)N[C@@H](CCCNC(=N)N)C(=O)N[C@H](C(=O)N[C@@H](CS)C(N)=O)[C@@H](C)O)[C@@H](C)O	CXCR4 (Homo sapiens, UniProt P61073, Y116A)	12G5 antibody binding	–	200 nM, mutant Y116A	reference: wild type	binding affinity change	decreased
CCCCC/C=C\C/C=C\C/C=C\C/C=C\CCCC(=O)NC(CO)C(=O)O (stereo in doubt)	Voltage-gated potassium channel, KQT; KCNQ2(Kv7.2)/KCNQ3(Kv7.3) (KCNQ3/KCNQ2, Homo sapiens, UniProt O43525+O43526)	two-electrode voltage clamp	Xenopus oocytes	10 µM	–	onset time	≤ 2 min
Nc1c2c([n+](CCCCCCCCCC[n+]3c4c(c(N)c5ccccc53)CCC4)c3ccccc13)CCC2	2F5 Fab	SPR	–	concentration not given	–	binding	no binding
